Results gathered from unrelated publications.
A part holds a random share of what one study measured. Changes are numbered by the printed parent chain.
Chain of UniProt P08588 (whole entry, looked up): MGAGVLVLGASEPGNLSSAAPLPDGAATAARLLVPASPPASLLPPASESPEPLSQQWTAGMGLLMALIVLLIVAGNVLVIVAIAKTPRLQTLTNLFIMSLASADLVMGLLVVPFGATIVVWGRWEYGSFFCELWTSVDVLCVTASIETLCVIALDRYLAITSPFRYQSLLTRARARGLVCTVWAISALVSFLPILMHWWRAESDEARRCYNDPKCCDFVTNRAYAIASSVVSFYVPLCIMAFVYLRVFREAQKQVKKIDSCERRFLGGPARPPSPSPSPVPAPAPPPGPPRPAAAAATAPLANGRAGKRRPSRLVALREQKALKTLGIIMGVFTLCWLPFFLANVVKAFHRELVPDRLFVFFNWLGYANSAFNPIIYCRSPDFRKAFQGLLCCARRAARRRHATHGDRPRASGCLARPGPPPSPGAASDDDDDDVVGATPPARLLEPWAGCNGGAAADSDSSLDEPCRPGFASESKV
Chain of UniProt P61075 (whole entry, looked up): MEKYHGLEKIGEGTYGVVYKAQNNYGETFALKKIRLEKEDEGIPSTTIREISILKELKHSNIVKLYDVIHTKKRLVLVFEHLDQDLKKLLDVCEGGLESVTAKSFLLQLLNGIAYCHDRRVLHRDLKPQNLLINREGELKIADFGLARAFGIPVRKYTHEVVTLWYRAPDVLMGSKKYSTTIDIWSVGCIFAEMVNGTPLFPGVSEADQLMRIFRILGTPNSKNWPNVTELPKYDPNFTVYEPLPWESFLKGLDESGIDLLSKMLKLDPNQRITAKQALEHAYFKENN
Chain of UniProt P50406 (whole entry, looked up): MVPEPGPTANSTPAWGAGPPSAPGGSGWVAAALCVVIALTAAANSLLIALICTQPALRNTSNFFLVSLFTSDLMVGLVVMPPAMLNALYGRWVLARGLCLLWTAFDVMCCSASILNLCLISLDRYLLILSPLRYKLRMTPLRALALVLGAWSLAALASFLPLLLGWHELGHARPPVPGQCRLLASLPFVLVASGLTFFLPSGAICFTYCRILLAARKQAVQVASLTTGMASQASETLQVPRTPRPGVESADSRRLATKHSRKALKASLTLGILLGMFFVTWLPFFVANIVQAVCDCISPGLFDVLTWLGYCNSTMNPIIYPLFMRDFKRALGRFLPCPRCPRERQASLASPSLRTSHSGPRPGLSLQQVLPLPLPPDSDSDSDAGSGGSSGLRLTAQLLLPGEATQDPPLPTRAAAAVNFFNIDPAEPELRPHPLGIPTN

Sample 1 — target: CCND3, cyclin fold, Cln2 fusion (human); method: yeast growth competition, sequencing; sample: yeast; notes: weak parent motif; baseline: not given; direction: higher = stronger binding; starting sequence: viral docking peptide; YKVKRRLVFGADD
Under “normalised enrichment score”, `YKVKRRLVFGLDD [A11L]` is recorded as 0.205.
Under “normalised enrichment score”, `YKVKRRQVFGADD [L7Q]` is recorded as -0.0683.
For `YKVKRRLVFGDDD [A11D]`, “normalised enrichment score” read 0.977.
Under “normalised enrichment score”, `YKVKRRLVAGADD [F9A]` is recorded as -0.0341.
`YKVKFRLVFGADD [R5F]`: “normalised enrichment score” -0.21.
`YKVKRYLVFGADD [R6Y]`: “normalised enrichment score” 0.365.

Other studies, line by line
HLA class I histocompatibility antigen, B alpha chain allele B*39:01: HLA class I histocompatibility antigen, B alpha chain, allele B*39:01 (Homo sapiens, UniProt P01889)
The inhibition of Cc1c(N2CCNCC2)nc2ccc(Br)cc2c1C(=O)NC[C@H](CCC(=O)O)c1ccccc1Cl is reported as 1.76% (HTR6 (Homo sapiens, UniProt P50406); ligand displacement; 10 µM).
The Emax of CC(CCc1ccccc1)NC(C)C(O)c1ccc(O)cc1 (stereo not drawn) is reported as 99.9% (ADRB1 (Homo sapiens, UniProt P08588); agonist).
CNC(=O)c1ccc(Nc2ncc(C(F)(F)F)c(NCc3nccnc3N(C)S(C)(=O)=O)n2)cc1 gave a remaining binding of 89% (CRK2 (Plasmodium falciparum, UniProt P61075); cell-free assay, competition with immobilised ligand; 0.1 µM).
`FHLRSRFAF` — result for binding: “active” (HLA class I histocompatibility antigen, B alpha chain allele B*39:01; peptide-MHC binding; peptide; concentration not given).
With CNC(=O)c1cc(C(=O)NC2CC2)cn(Cc2ccccc2)c1=O the viability was 83% (normal-adjacent epithelium patient-derived organoids sample G; CellTiter-Glo; 1 µM; baseline: DMSO).
Under binding, `RYSIFFDY` is recorded as “inactive” (HLA class I histocompatibility antigen, B alpha chain allele B*39:01; peptide-MHC binding; peptide; concentration not given).

A few entries again (sample 1):
`YKVKRYLVFGADD [R6Y]`: “normalised enrichment score” 0.365.
